# Measured values gathered from unrelated publications.
# Numbered parts are unrelated; each lists some results of a single study. Several values in a cell are separate wells, animals, samples, runs or records.

# Set 1
# Target: Centromere-binding protein 1, full length, His-tagged (CBF1, Saccharomyces cerevisiae, UniProt P17106, residues 1-351)
# Chain of UniProt P17106 (whole entry, looked up): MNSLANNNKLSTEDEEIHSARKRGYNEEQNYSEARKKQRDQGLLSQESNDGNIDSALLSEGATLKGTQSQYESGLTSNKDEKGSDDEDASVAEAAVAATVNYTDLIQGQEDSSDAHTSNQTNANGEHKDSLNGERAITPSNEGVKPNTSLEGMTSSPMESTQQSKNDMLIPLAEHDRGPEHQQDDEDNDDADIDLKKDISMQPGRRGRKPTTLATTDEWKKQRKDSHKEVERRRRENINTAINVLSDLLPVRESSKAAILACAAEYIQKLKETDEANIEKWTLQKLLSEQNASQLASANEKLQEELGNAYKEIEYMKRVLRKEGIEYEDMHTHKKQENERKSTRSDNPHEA
# Technique: competition protein-binding microarray
# Form: double-stranded DNA, one strand shown
# Sample: in vitro
# Concentration: 2 µM
# Notes: whole 60-bp probe, lowest competitor level
# With: Pho4 competitor, 0.05 µM
# Direction: higher = stronger binding
Oligonucleotide,fluorescence intensity [a.u.]
TTTGGGAAGACTTAGCACGTTATATACTATTAATGAGTCTTGATTCGCTTGACGCTGCTG,201
CATACCCAACCTTGTCACGCGACTTAAGATATTTGTGTCTTGATTCGCTTGACGCTGCTG,781
GCTTGCTGTCAGCGTCACAGTTAAAGTTCATATACAGTCTTGATTCGCTTGACGCTGCTG,75.3
CATACCCAACCTTGGACGGTGGGTGAAGATATTTGTGTCTTGATTCGCTTGACGCTGCTG,67.5

# Set 2
# Target: Sal-like protein 4, full length isoform B (SALL4, Homo sapiens, UniProt Q9UJQ4-2, residues 1-616)
# Technique: universal PBM
# Form: double-stranded DNA, one strand shown
# Sample: in vitro
# Concentration: not given
# Notes: 8-mer, flanks averaged, mean of replicates
# Direction: higher = stronger binding
# Target sequence (chain): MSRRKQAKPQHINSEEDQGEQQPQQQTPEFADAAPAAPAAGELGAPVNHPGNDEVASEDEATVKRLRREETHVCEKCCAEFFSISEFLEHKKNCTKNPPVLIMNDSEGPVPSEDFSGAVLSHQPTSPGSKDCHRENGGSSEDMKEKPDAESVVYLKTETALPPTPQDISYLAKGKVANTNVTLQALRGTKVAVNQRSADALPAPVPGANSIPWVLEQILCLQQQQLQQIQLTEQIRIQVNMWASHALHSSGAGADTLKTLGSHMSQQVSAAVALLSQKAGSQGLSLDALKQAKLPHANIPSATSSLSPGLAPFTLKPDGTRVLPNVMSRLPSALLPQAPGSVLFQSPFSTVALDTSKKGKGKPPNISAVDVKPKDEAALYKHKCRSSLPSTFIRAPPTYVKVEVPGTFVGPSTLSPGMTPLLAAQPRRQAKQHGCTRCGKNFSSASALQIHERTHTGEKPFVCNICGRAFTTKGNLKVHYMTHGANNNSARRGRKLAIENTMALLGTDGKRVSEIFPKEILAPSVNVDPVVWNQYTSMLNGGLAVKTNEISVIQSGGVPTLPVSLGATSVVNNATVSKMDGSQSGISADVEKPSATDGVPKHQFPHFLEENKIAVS
Oligonucleotide,E-score
ACCTATAG,0.0838
GGTGTGCA,-0.189
ACCGTCGA,-0.226
AGCAGTTA,0.117

# Set 3
# Target: Interferon regulatory factor 5, full length, phosphomimetic (IRF5, Homo sapiens, UniProt Q13568-2, residues 1-514, K96S/S451D/S453D/S456D/S462D)
# Technique: protein-binding microarray
# Form: double-stranded DNA, one strand shown
# Sample: in vitro
# Concentration: 250 nM
# Notes: 60-bp whole probe
# With: salmon DNA 0.4 mg/ml
# Reference: random background probes
# Direction: higher = stronger binding
Oligonucleotide,log fluorescence
GCCTAGCACTCAGATATCGGGACTGGATTAGTGCTAGTCTTGATTCGCTTGACGCTGCTG,0.925 z-score
GCCTAGCACGACGGACTGGGTATCGGGATGTGCTAGGTCTTGATTCGCTTGACGCTGCTG,0.624 z-score
GCCTAGCACTTAGGTCTCCTTCTCCATTAGTGCTAGGTCTTGATTCGCTTGACGCTGCTG,0.0944 z-score

# Single results of other studies
Molecule,target,test,test system,conditions,how to read,quantity,value
"PhoQ, residues 284 288 289 292 302 303 TNASYF","PhoP, residues 12 14 15 18 19 LWHCS (Escherichia coli, UniProt P23836)","Sort-seq, item: YFP reporter",E. coli,"PhoQ-PhoP variant library, with: 10 µM Mg2+","reference: high Mg2+ state, higher = stronger signaling",fold induction,9.26 and 7.93

# Some of these lines once more (set 2):
Oligonucleotide,E-score
ACCTATAG,0.0838
